Assay results of several laboratories.
Every numbered part comes from another study and shows a few of its results, in no order.
Chain of UniProt P08913 (whole entry, looked up): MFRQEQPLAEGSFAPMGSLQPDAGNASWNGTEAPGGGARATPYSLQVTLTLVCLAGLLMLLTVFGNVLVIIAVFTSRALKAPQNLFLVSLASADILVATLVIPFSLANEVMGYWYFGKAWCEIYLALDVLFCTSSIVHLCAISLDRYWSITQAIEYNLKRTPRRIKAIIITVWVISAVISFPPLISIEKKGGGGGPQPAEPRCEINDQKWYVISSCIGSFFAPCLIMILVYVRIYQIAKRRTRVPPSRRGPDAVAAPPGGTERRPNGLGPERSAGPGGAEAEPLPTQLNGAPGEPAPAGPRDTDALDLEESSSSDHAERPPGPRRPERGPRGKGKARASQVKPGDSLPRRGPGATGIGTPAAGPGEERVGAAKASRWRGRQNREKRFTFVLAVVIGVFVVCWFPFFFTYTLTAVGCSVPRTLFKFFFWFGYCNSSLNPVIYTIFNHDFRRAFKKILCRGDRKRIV
Chain of UniProt Q5BJF2 (whole entry, looked up): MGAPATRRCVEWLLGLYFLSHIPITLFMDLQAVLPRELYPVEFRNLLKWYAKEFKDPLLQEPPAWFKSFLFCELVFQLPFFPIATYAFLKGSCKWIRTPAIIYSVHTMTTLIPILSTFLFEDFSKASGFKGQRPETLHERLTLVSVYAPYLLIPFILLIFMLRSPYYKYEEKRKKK
Chain of UniProt P35368 (whole entry, looked up): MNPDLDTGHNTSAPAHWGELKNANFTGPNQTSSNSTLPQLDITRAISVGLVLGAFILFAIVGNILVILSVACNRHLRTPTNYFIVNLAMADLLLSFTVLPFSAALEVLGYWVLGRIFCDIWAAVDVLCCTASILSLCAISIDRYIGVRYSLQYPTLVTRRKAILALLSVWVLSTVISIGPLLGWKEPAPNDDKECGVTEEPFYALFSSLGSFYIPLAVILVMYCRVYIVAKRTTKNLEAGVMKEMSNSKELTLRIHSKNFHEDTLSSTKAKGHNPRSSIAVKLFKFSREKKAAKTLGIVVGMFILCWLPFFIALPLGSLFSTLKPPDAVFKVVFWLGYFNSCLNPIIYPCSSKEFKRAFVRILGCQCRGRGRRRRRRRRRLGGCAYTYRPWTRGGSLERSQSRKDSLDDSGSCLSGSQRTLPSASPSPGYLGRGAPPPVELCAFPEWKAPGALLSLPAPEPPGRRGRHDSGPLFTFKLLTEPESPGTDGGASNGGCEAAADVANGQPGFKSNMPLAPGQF
Chain of UniProt P18825 (whole entry, looked up): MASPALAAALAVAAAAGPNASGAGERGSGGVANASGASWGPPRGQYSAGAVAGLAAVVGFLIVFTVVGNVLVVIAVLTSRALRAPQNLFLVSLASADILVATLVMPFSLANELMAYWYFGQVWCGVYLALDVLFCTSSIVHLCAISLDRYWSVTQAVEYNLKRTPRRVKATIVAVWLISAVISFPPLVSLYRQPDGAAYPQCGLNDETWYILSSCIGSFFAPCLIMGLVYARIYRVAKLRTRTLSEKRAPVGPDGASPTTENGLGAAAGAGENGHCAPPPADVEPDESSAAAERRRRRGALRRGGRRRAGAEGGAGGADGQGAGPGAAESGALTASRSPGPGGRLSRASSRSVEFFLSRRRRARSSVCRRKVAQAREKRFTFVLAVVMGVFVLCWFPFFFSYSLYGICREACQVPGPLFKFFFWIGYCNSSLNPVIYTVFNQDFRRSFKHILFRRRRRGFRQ
Chain of UniProt P34969 (whole entry, looked up): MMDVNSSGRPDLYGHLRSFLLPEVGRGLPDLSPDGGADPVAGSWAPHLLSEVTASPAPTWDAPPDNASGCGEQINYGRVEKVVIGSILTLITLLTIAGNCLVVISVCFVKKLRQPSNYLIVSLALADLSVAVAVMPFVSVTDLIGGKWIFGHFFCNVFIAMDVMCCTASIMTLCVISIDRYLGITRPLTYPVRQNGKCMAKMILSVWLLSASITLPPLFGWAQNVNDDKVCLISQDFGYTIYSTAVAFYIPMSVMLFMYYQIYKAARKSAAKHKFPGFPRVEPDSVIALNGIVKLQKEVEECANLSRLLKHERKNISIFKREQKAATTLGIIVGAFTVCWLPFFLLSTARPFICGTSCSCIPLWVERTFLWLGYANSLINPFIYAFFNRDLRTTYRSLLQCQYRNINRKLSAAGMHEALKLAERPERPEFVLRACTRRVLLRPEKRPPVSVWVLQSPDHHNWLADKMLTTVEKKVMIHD
Chain of UniProt P08172 (whole entry, looked up): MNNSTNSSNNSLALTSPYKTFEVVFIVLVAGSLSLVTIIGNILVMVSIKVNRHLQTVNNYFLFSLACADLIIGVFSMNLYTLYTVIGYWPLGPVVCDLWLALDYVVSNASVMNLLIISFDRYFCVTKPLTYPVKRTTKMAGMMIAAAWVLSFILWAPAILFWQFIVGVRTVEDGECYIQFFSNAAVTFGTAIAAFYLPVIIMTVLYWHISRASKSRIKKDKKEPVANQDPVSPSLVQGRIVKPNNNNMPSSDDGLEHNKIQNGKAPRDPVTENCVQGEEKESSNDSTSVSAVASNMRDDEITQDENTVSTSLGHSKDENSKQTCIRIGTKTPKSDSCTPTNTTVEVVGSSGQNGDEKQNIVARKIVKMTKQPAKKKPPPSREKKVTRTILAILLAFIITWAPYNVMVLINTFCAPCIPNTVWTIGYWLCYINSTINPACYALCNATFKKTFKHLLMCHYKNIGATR
Chain of UniProt P25100 (whole entry, looked up): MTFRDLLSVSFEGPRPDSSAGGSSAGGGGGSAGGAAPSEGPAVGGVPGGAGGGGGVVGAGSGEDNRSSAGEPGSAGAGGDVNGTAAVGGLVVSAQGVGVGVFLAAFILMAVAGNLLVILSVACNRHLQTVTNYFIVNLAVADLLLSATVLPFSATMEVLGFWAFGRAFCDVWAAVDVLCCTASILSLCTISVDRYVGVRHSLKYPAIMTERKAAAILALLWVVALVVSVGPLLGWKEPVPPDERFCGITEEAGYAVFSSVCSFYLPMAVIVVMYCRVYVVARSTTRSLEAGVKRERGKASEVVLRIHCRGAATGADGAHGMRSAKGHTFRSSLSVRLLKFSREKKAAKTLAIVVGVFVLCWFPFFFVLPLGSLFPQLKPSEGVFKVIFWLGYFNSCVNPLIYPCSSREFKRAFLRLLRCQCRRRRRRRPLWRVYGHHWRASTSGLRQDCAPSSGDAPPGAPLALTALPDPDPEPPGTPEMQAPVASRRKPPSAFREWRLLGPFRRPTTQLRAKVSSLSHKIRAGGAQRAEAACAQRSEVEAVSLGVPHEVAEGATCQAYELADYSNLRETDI

Study 1
Target: SRSF protein kinase 3 (SRPK3, Homo sapiens, UniProt Q9UPE1)
Chain of UniProt Q9UPE1 (whole entry, looked up): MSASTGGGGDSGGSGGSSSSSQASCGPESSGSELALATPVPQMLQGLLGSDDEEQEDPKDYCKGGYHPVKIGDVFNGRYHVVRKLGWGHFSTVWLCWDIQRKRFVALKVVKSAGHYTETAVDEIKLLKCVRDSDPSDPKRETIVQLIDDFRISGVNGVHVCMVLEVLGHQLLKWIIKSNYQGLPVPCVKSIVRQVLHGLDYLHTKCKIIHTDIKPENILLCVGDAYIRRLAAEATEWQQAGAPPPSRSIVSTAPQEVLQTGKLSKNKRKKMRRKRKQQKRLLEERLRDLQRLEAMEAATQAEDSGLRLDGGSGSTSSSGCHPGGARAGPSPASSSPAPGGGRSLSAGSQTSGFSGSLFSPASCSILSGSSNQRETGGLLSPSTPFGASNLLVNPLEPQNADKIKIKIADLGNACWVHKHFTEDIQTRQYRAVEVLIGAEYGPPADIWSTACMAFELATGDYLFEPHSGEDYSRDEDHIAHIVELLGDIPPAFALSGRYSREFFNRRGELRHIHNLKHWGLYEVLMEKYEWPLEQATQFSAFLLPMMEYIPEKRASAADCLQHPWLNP
Effect on: enzyme activity
Action: inhibitor
Concentration: 0.5 µM
Reference: control
Structure (SMILES)	remaining activity [%]
CCc1[nH]c(-c2ccc(OC)cc2)nc1-c1ccncc1	102
Oc1ccc(Nc2nc(-c3ccc(Cl)cc3)cs2)cc1	98.1
Cc1cc(Nc2nc(-c3ccccc3)nc3ccccc23)n[nH]1	61.5
O=S(=O)(NCCNC/C=C/c1ccc(Br)cc1)c1cccc2cnccc12	98
COc1cc(Nc2c(C#N)cnc3cc(OCCCN4CCN(C)CC4)c(OC)cc23)c(Cl)cc1Cl	106
Fc1ccc(-c2nc3n(c2-c2ccncc2)CCS3)cc1	98.5
N#CC(=C(N)Sc1ccc(N)cc1)c1ccccc1C(F)(F)F	96.3
Cc1cncc2cccc(S(=O)(=O)N3CCCN(C(=O)CN)C[C@@H]3C)c12	99.9
CC#CC(=O)Nc1cc2c(Nc3ccc(F)c(Cl)c3)ncnc2cn1	101
O=C1NC(=O)C(c2c[nH]c3ccccc23)=C1c1c[nH]c2ccccc12	90
CC(C)(C)n1nc(Cc2cccc3ccccc23)c2c(N)ncnc21	92.9
Nc1ncnc2c1cnn2-c1ccccc1	96.4
O=C1Cc2c([nH]c3ccc([N+](=O)[O-])cc23)-c2ccccc2N1	92.7
NC(=O)c1ccc(N(C(N)=O)c2c(F)cccc2F)nc1-c1ccc(F)cc1F	105
Nc1nc(Nc2ccc(S(N)(=O)=O)cc2)nn1C(=O)c1c(F)cccc1F	86.2
CC(=O)c1ccc(N2CCOCC2)cc1O	104
CSc1nc(-c2ccnc(N[C@@H](C)c3ccccc3)c2)c(-c2ccc(F)cc2)[nH]1 (racemic)	92.8
CCCC(=O)Oc1ccc2[nH]c(C(=O)c3cc4ccccc4[nH]3)cc2c1	93.2

Study 2
Compound: Cc1cc2c(-c3ccco3)cnc(N[C@H]3CCN(C)C[C@@H]3C(=O)NC3CCCCC3)c2[nH]c1=O
Effect on: ligand displacement
Concentration: 10 µM
target	inhibition [%]
Alpha-2C adrenergic receptor (ADRA2C, Homo sapiens, UniProt P18825)	10.8
Alpha-1D adrenergic receptor (ADRA1D, Homo sapiens, UniProt P25100)	7.87
Alpha-1B adrenergic receptor (ADRA1B, Homo sapiens, UniProt P35368)	1.98
Alpha-2A adrenergic receptor (ADRA2A, Homo sapiens, UniProt P08913)	9.8
5-hydroxytryptamine receptor 7 (HTR7, Homo sapiens, UniProt P34969)	-22
Sigma intracellular receptor 2 (TMEM97, Homo sapiens, UniProt Q5BJF2)	44.1
Muscarinic acetylcholine receptor M2 (CHRM2, Homo sapiens, UniProt P08172)	5.25

Study 3
SMILES: COc1ccc(-c2c(Nc3ccccn3)[nH]c3c(C4=CCCCC4)c(-c4ccccc4)nn3c2=O)cc1
Medium: plasma
Route: oral
Setting: single dose
test	system	setting	plasma concentration, mean
–	cancer patients	100 mg, 0 h post-dose	0 ng/mL
–	cancer patients	150 mg, 0 h post-dose	0 ng/mL
–	cancer patients	100 mg, 24 h post-dose	715 ng/mL
–	cancer patients	200 mg, 2 h post-dose	1100 ng/mL
LC-MS/MS	human	200 mg twice daily, 0 h	0 ng/mL
–	cancer patients	50 mg, 24 h post-dose	185 ng/mL

Study 4
Species: mouse
Medium: microsomes or S9
Concentration: 2 µM
Time: 0.5 h
SMILES	remaining compound
O=C(Cc1cnc[nH]c1=O)N[C@@H]1CCCC[C@H]1c1ccccc1	95.9%
Cc1ccc(N(Cc2ccc(F)cc2)N(C)CC(=O)NC2CCCCC2)cc1	0.115%
CCOC(=O)c1c(C(F)(F)F)[nH]n2c(C(F)F)nnc12	97.8%
Cc1ccc(Cl)cc1N1CCN(Cc2nc3c([nH]2)c(=O)[nH]c(=O)n3C)CC1	65%
CCC(C)c1ccccc1OCCn1cnc2ccccc21 (stereo not shown)	0.0128%
O=S(=O)(Nc1cc(Cl)c(Cl)cc1Cl)c1cc(Cl)c(Cl)cc1Cl	32.6%
O=c1[nH]c2c(S(=O)(=O)c3ccc(Br)cc3)nnn2c2ccsc12	61.8%
CCOc1cc(=O)n2c(c1C(=O)N1CCN(C3CCCCC3)CC1)CCCCC2	21.2%
CCc1ccc(-c2nnc(N3CCN(C(C)c4nccs4)CC3)n2CCCOC)cc1 (stereo not shown)	4.28%
Cc1n[nH]c(C)c1C12CC3CC(CC(CC(=O)O)(C3)C1)C2	62.2%
Cc1sc2c(C3CCN(C(=O)C(C)NC4CCS(=O)(=O)C4)CC3)nc(C)n2c1C (stereo not shown)	1.75%
Cc1[nH]ncc1CCCNCc1cnc2c(c1)c(C#N)cn2C(C)(C)C	22.2%
Cc1c(Br)c2ccccc2n1CC(=O)n1ncc(C#N)c1N	3.12%
CC(C)S(=O)(=O)c1ccccc1Nc1c(Cl)cnc(Cl)c1Cl	17.5%
CC(=O)c1cccc(N(CC(=O)Nc2ccc(S(=O)(=O)N3CCCC3)cc2)S(C)(=O)=O)c1	1.19%

Repeated from above (study 1):
Structure (SMILES)	remaining activity [%]
NC(=O)c1ccc(N(C(N)=O)c2c(F)cccc2F)nc1-c1ccc(F)cc1F	105
Nc1nc(Nc2ccc(S(N)(=O)=O)cc2)nn1C(=O)c1c(F)cccc1F	86.2
CC(=O)c1ccc(N2CCOCC2)cc1O	104
CSc1nc(-c2ccnc(N[C@@H](C)c3ccccc3)c2)c(-c2ccc(F)cc2)[nH]1 (racemic)	92.8
CCCC(=O)Oc1ccc2[nH]c(C(=O)c3cc4ccccc4[nH]3)cc2c1	93.2
